Results of several laboratories.
± marks the error that the study gave.
B1: abpA 1-195 (Streptococcus gordonii, UniProt A8AZZ3); sequence looked up; chain MKKVLLSSVVALTLFAAAAPVFSADEATDAARNNDGAYYLQTQFTNADKVNEYLAQHDGEIRAEAAADPAVVAAKAALDAVEGGSHNYGEVKAAYEAAFNNAFNAVRNKYVQQFQATYNNATEQEGKTYIQGETPEQANARYLKRVGAANNQNPAAEDKGATTPASKEEAKKSEAAAKNAGKAAGKALPKTSAVK
B2: PPP2R5A D205R/E251K (Homo sapiens, UniProt Q15172-1); chain MSSSSPPAGAASAAISASEKVDGFTRKSVRKAQRQKRSQGSSQFRSQGSQAELHPLPQLKDATSNEQQELFCQKLQQCCILFDFMDSVSDLKSKEIKRATLNELVEYVSTNRGVIVESAYSDIVKMISANIFRTLPPSDNPDFDPEEDEPTLEASWPHIQLVYEFFLRFLESPDFQPSIAKRYIDQKFVQQLLELFDSEDPRERRFLKTVLHRIYGKFLGLRAFIRKQINNIFLRFIYETEHFNGVAELLKILGSIINGFALPLKAEHKQFLMKVLIPMHTAKGLALFHAQLAYCVVQFLEKDTTLTEPVIRGLLKFWPKTCSQKEVMFLGEIEEILDVIEPTQFKKIEEPLFKQISKCVSSSHFQVAERALYFWNNEYILSLIEENIDKILPIMFASLYKISKEHWNPTIVALVYNVLKTLMEMNGKLFDDLTSSYKAERQREKKKELEREELWKKLEELKLKKALEKQNSAYNMHSILSNTSAE
B3: Lqq V toxin, rhodamine on Lys60 (Leiurus quinquestriatus quinquestriatus, UniProt P01481); ends and bridges not checked; also: 125I-labelled, site not given here; rhodamine on Lys60; chain LKDGYIVDDKNCTFFCGRNAYCNDECKKKGGESGYCQWASPYGNACWCYKLPDRVSIKEK(6‑carboxytetramethylrhodamine acetamide)GRCN
B4: PPP2R5A E378R (Homo sapiens, UniProt Q15172-1); chain MSSSSPPAGAASAAISASEKVDGFTRKSVRKAQRQKRSQGSSQFRSQGSQAELHPLPQLKDATSNEQQELFCQKLQQCCILFDFMDSVSDLKSKEIKRATLNELVEYVSTNRGVIVESAYSDIVKMISANIFRTLPPSDNPDFDPEEDEPTLEASWPHIQLVYEFFLRFLESPDFQPSIAKRYIDQKFVQQLLELFDSEDPRERDFLKTVLHRIYGKFLGLRAFIRKQINNIFLRFIYETEHFNGVAELLEILGSIINGFALPLKAEHKQFLMKVLIPMHTAKGLALFHAQLAYCVVQFLEKDTTLTEPVIRGLLKFWPKTCSQKEVMFLGEIEEILDVIEPTQFKKIEEPLFKQISKCVSSSHFQVAERALYFWNNRYILSLIEENIDKILPIMFASLYKISKEHWNPTIVALVYNVLKTLMEMNGKLFDDLTSSYKAERQREKKKELEREELWKKLEELKLKKALEKQNSAYNMHSILSNTSAE
B5: PPP2R5A E106K (Homo sapiens, UniProt Q15172-1); chain MSSSSPPAGAASAAISASEKVDGFTRKSVRKAQRQKRSQGSSQFRSQGSQAELHPLPQLKDATSNEQQELFCQKLQQCCILFDFMDSVSDLKSKEIKRATLNELVKYVSTNRGVIVESAYSDIVKMISANIFRTLPPSDNPDFDPEEDEPTLEASWPHIQLVYEFFLRFLESPDFQPSIAKRYIDQKFVQQLLELFDSEDPRERDFLKTVLHRIYGKFLGLRAFIRKQINNIFLRFIYETEHFNGVAELLEILGSIINGFALPLKAEHKQFLMKVLIPMHTAKGLALFHAQLAYCVVQFLEKDTTLTEPVIRGLLKFWPKTCSQKEVMFLGEIEEILDVIEPTQFKKIEEPLFKQISKCVSSSHFQVAERALYFWNNEYILSLIEENIDKILPIMFASLYKISKEHWNPTIVALVYNVLKTLMEMNGKLFDDLTSSYKAERQREKKKELEREELWKKLEELKLKKALEKQNSAYNMHSILSNTSAE
UniProt P00747, sequence (whole entry, looked up): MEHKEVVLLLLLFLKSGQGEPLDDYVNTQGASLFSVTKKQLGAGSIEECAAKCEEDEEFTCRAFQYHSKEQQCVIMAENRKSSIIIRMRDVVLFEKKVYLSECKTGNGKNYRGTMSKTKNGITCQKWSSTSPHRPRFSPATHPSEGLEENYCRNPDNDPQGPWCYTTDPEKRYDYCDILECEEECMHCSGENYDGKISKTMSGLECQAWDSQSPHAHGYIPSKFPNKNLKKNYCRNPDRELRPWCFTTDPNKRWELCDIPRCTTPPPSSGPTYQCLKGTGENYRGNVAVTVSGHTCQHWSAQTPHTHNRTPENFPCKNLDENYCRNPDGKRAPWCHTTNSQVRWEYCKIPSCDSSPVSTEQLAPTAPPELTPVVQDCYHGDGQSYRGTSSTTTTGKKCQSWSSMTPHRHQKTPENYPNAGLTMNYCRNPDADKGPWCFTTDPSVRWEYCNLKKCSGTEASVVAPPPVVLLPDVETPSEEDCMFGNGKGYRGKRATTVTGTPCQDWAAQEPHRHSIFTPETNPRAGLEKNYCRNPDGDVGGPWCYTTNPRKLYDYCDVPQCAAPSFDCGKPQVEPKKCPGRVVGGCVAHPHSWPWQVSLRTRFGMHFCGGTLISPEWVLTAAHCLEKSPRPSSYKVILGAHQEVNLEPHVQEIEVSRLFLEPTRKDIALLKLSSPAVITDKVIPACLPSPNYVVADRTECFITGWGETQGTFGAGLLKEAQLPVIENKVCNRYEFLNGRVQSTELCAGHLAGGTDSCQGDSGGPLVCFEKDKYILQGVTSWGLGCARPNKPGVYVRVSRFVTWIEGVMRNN
UniProt P08603, sequence (whole entry, unmodified, looked up): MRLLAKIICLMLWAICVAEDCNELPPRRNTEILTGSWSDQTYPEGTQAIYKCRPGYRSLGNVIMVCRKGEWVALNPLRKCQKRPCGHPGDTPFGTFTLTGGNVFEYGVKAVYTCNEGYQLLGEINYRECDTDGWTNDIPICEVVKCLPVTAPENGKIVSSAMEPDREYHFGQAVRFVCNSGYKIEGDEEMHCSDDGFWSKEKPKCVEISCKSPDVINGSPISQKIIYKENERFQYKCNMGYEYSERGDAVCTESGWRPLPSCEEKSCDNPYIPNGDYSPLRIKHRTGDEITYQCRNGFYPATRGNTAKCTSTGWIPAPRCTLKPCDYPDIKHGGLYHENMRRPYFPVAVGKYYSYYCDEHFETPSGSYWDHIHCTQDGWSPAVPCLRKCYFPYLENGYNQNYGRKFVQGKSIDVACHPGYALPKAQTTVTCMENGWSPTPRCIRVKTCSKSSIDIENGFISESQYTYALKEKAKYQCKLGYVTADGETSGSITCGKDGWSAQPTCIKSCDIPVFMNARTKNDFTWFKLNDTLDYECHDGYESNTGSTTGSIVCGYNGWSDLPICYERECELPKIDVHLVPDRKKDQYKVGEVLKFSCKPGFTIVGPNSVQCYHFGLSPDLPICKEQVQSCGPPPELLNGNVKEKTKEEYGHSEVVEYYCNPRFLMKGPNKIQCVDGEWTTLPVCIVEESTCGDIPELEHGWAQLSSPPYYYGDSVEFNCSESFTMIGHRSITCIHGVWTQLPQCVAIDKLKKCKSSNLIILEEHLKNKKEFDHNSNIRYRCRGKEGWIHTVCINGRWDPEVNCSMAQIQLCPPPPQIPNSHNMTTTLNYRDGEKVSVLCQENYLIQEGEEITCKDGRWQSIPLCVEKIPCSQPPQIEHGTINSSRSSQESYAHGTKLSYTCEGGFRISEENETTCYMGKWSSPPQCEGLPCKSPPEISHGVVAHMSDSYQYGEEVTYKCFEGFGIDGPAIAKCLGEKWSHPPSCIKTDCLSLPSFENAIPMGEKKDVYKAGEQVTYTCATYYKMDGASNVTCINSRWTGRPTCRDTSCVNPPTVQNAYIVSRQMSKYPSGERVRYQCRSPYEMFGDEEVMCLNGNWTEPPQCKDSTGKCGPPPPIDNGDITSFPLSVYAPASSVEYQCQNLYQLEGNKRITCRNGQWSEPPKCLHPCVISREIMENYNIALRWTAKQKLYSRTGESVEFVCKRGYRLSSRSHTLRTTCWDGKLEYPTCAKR
UniProt P04775, sequence (whole entry, looked up): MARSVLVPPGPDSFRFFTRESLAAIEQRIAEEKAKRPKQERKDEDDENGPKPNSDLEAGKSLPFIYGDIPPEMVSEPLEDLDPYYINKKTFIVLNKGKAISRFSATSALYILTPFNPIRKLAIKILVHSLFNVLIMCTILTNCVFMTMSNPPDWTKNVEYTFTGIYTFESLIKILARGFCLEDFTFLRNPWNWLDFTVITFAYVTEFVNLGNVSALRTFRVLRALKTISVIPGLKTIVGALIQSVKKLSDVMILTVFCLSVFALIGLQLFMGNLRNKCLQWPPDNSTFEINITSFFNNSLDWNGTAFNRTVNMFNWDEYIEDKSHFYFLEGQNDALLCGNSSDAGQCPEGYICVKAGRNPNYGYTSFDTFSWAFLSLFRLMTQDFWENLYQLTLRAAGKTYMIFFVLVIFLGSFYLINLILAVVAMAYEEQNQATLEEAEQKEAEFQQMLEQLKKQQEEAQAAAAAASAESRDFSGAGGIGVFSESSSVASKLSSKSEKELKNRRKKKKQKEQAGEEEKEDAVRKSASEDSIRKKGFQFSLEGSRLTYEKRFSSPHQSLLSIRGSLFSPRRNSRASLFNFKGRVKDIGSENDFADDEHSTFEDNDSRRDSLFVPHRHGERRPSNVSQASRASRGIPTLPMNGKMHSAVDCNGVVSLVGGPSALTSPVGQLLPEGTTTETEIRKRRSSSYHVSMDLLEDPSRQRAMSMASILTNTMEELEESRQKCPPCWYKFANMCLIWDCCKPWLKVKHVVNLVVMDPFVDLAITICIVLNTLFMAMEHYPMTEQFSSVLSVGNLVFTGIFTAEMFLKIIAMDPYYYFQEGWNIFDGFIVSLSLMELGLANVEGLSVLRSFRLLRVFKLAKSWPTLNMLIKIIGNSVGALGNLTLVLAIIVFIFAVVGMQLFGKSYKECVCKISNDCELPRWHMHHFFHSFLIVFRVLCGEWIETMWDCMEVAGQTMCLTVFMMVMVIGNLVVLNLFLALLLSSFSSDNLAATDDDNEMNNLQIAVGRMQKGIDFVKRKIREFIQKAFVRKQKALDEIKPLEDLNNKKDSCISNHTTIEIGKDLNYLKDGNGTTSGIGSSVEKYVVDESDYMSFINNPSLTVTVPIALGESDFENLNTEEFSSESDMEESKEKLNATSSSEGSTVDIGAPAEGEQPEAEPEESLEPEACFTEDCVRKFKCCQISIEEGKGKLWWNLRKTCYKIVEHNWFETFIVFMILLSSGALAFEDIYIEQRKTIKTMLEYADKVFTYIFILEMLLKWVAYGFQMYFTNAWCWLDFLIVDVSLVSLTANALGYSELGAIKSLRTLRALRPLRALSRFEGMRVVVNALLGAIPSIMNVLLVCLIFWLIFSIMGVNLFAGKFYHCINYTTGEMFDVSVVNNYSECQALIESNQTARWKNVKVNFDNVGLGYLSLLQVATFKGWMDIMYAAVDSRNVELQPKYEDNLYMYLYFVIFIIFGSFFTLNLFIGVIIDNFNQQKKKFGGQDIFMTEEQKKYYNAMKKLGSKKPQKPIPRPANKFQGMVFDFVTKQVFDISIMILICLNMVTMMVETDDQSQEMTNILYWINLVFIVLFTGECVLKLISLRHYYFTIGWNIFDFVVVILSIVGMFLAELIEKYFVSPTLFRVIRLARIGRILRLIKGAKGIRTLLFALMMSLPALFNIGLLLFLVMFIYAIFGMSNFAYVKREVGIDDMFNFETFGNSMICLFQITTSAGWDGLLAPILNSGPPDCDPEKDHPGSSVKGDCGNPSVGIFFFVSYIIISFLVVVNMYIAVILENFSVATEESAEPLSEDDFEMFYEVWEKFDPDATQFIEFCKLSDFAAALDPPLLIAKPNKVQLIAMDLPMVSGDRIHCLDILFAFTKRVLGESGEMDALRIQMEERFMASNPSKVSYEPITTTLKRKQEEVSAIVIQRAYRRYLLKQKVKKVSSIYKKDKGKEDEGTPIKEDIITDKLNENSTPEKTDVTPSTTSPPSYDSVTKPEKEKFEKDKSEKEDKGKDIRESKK
UniProt P0DUB6, sequence (whole entry, unmodified, looked up): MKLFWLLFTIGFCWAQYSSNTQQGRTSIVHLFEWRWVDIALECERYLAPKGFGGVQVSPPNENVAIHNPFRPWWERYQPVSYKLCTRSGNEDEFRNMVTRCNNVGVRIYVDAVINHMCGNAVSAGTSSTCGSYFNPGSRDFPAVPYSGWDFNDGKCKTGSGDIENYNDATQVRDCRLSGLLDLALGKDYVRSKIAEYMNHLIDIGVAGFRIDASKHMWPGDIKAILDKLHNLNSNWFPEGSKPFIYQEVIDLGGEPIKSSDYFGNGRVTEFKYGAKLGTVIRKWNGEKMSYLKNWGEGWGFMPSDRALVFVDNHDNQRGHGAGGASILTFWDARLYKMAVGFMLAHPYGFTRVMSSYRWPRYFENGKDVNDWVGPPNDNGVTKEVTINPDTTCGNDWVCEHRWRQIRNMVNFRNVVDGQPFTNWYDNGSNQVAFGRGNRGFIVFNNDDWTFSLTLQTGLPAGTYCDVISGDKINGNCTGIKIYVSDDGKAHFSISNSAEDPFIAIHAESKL

Substance | target or system | test | system | setting | measurement | result
B1 (abpA 1-195) | AMY1A mature W134A/W203A/Y276A/W284A/W316A/W388A (Homo sapiens, UniProt P0DUB6) | SPR |  | apparent | koff | 0.017 s⁻¹
HSP90 fragment G515A (Plasmodium falciparum) | itself | mass photometry |  |  | subunits per oligomer | 2
H-RNPHLMGIGGGLAGESGETTPK-OH (fnz 370-391 (Streptococcus zooepidemicus)) | FN1 516-608, N-glycans trimmed to GlcNAc (Homo sapiens, UniProt P02751) | ITC | peptide | pH 7.4, 25 °C, one-site fit | Kd | 10900 nM
GTCTTTAATAATTAAACTAGTGTCTTGACAGATGTAAACAACAGGTATAAAC (dsDNA) | niaR 1-174 K28A (Streptococcus mutans, UniProt Q8DVX8) | EMSA | double-stranded DNA, one strand shown |  | binding | binds
GPC fragment S4Y (lymphocytic choriomeningitis virus) | H2-D1/B2m (Mus musculus) | flow cytometry | RMA-S |  | half-life | > 1 h
ELPDEFVVVTV |  | T cell recognition, HLA-B*07:02 tetramer staining | peptide, CD8+ T cells, COVID-19 convalescent human subjects, HLA-B*07:02 | dose not given, 5 subjects tested | tetramer-reactive CD8+ T cell count | 4
cbpA fragment (Streptococcus pneumoniae) | CFH 508-567 E523A (Homo sapiens, UniProt P08603) | ITC |  |  | ΔH | -15.5 ± 0.6 kcal/mol
FAVDAAKAY |  |  | peptide, tetramer-reactive CD8+ T cells, unexposed HLA-B*07:02 subjects |  | number of clonotypes | 13
B2 (PPP2R5A D205R/E251K) | Vif/CBFB/ELOB/ELOC R33D (HIV-1/Homo sapiens) | pull-down |  |  | binding | binds
B3 | Scn2a whole channel (Rattus norvegicus, UniProt P04775) | equilibrium binding | peptide, rat brain synaptosomes |  | Kd | 7 nM
B4 (PPP2R5A E378R) | Vif/CBFB/ELOB/ELOC R15E (HIV-1/Homo sapiens) | pull-down |  |  | binding | binds
PVDR (Plasmodium vivax, UniProt P22290) | ACKR1 Fc fusion (monkey) | BLI |  |  | Kd | 18.7 ± 1.09 nM
Dengue virus E protein virion, UV-inactivated (Dengue virus serotype 2) | PLG 376-562 (Homo sapiens, UniProt P00747) | BLI |  |  | Kd | 8.8 nM
B5 (PPP2R5A E106K) | Vif/CBFB/ELOB/ELOC R127E (HIV-1/Homo sapiens) | pull-down |  |  | binding | binds

Some of these lines once more:
Substance | target or system | test | system | setting | measurement | result
Dengue virus E protein virion, UV-inactivated (Dengue virus serotype 2) | PLG 376-562 (Homo sapiens, UniProt P00747) | BLI |  |  | Kd | 8.8 nM
